Measurements collected from several papers.
Lines come from different studies, so protocols differ. ± gives the spread as reported.
TGFBR1: TGF-beta receptor type-1 (TGFBR1, Homo sapiens, UniProt P36897)
UniProt P36897, sequence (whole entry, looked up): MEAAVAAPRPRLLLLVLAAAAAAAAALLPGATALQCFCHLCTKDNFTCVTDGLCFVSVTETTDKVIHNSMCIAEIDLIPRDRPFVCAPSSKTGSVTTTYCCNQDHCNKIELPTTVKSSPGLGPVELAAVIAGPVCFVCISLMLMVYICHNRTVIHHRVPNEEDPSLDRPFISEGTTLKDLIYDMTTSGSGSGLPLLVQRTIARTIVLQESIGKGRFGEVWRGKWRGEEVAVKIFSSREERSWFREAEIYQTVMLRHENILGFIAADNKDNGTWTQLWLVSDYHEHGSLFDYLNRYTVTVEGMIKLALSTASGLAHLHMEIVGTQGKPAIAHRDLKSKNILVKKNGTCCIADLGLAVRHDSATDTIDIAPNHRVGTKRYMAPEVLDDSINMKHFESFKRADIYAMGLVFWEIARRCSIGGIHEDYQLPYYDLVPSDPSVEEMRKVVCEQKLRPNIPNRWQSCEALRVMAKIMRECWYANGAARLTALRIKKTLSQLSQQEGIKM
DCN1-like protein 1 PONY domain: DCN1-like protein 1, PONY domain (Homo sapiens, UniProt Q96GG9)
PARP1: Poly [ADP-ribose] polymerase 1 (PARP1, Homo sapiens, UniProt P09874)
UniProt P09874, sequence (whole entry, looked up): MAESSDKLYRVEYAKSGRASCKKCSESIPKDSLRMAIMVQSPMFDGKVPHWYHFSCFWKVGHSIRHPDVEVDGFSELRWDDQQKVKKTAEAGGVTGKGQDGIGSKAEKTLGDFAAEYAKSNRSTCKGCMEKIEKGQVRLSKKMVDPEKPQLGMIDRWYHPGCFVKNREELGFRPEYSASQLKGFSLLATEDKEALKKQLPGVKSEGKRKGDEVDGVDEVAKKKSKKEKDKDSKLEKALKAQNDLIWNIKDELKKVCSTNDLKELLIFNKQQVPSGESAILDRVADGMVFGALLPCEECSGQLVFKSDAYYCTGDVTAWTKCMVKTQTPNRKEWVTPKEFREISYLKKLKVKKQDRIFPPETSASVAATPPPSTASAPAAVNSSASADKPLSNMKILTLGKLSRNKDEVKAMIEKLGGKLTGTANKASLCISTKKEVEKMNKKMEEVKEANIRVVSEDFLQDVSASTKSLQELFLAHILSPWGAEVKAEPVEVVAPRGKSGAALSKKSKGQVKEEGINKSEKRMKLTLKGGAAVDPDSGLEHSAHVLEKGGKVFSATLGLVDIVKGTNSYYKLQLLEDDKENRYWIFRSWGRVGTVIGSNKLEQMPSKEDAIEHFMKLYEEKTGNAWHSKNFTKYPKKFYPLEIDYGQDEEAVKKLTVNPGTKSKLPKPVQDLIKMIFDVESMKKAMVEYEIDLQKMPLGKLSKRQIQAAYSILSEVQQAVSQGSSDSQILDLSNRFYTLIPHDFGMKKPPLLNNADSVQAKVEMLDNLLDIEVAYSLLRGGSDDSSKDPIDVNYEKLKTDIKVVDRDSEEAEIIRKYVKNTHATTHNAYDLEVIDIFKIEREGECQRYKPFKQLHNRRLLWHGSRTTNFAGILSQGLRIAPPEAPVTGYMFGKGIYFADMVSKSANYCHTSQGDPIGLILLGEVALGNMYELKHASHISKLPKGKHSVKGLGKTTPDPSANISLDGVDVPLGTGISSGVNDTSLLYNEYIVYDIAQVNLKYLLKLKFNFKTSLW
TYMS: Thymidylate synthase (TYMS, Homo sapiens, UniProt P04818)
UniProt P04818, sequence (whole entry, looked up): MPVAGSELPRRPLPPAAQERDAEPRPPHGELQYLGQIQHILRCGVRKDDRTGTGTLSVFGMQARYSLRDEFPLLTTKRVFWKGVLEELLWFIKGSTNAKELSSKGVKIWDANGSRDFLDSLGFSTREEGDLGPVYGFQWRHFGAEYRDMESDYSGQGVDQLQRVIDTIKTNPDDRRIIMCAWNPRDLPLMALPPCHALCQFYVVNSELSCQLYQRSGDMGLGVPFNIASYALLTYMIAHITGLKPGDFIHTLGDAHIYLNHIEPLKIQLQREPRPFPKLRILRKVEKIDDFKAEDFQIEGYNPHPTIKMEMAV
Protein lin-28 homolog A: Protein lin-28 homolog A (Mus musculus, UniProt Q8K3Y3)
UniProt Q8K3Y3, sequence (whole entry, looked up): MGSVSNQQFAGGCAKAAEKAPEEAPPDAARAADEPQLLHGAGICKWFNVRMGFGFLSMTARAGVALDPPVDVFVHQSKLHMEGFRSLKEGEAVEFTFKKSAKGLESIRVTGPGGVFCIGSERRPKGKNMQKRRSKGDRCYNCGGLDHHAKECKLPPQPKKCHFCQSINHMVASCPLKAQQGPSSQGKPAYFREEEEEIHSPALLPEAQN
UniProt Q9HB03, sequence (whole entry, looked up): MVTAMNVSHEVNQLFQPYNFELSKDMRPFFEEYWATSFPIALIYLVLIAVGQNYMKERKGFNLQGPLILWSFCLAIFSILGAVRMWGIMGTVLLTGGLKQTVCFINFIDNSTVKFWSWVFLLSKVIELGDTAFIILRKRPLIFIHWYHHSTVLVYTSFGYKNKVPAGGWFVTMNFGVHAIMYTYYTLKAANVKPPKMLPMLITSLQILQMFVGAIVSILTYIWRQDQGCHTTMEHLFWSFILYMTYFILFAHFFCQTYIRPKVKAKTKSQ
UniProt Q9Y2U5, sequence (whole entry, looked up): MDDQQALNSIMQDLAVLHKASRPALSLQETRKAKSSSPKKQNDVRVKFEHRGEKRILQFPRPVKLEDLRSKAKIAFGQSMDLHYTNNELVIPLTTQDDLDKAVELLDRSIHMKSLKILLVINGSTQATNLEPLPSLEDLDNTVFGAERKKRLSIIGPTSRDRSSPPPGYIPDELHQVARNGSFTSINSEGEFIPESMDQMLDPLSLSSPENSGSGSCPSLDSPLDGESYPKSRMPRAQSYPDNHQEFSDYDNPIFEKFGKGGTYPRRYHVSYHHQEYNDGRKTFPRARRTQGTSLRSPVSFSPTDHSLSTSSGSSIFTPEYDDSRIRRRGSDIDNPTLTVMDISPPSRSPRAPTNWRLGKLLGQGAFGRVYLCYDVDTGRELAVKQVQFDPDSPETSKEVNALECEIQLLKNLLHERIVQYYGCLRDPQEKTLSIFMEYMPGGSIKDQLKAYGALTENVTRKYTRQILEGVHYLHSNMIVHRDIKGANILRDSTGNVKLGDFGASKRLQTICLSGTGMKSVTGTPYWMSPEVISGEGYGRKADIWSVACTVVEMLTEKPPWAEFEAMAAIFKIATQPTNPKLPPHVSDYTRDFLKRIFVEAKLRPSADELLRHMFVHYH
UniProt P03951, sequence (whole entry, looked up): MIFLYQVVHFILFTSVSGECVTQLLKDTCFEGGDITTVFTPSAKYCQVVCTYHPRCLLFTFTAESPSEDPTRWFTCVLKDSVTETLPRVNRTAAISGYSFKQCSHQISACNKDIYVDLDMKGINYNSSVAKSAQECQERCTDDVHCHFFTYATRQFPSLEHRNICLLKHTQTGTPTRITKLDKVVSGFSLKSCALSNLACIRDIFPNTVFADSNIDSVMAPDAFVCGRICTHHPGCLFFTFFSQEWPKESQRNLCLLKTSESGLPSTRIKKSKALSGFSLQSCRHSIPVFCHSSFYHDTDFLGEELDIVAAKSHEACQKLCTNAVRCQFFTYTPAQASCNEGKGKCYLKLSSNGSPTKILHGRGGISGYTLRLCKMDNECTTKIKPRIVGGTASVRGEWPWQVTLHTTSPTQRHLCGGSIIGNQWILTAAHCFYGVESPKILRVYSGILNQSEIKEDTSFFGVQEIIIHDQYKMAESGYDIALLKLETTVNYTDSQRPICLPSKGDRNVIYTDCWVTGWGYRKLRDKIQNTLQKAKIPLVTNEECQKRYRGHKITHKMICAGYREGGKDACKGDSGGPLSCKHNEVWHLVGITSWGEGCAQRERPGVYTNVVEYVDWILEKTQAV
UniProt P27695, sequence (whole entry, looked up): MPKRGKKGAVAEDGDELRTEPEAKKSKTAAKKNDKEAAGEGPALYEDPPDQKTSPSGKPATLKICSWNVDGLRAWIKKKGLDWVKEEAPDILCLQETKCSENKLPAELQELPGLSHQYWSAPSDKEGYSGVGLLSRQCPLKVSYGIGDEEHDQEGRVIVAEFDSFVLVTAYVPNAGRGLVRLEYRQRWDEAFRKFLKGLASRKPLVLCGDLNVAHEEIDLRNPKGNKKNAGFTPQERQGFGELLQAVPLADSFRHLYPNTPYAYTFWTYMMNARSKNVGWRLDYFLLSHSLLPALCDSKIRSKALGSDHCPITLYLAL
UniProt P22460, sequence (whole entry, looked up): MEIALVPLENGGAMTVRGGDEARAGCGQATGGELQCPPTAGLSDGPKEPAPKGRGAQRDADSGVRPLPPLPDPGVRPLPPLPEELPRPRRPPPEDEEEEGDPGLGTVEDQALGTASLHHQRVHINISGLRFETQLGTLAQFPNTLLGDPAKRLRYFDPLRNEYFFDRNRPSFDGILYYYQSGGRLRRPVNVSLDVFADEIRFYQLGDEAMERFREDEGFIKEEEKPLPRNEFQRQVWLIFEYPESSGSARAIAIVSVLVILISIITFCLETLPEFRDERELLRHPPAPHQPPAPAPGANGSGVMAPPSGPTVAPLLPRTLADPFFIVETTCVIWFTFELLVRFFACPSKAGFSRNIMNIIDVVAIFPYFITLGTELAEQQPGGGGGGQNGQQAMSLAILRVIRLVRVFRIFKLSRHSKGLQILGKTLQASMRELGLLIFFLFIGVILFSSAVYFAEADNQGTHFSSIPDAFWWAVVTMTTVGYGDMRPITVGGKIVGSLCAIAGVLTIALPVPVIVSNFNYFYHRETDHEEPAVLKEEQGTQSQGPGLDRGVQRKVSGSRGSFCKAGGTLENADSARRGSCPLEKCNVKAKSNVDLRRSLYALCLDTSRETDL

FC(F)(F)CN1CC(n2cc(Oc3ccn4nc(Cl)cc4n3)cn2)C1
IC50 (Very long chain fatty acid elongase 3 (Homo sapiens, UniProt Q9HB03); enzyme activity; microsomes): > 10 µM

COc1cc(O)c(-c2nc(-c3ccc(F)cc3)c(-c3ccncc3)[nH]2)c(OC)c1
IC50 (TGFBR1; binding, LanthaScreen kinase binding): > 5 µM

NS(=O)(=O)c1ccc(CNc2nc(Nc3cccc(NC(=O)N4CCCC4)c3)ncc2Br)cc1
number of kinases inhibited (16-kinase panel; radiometric; 1 µM, ATP at Km; below 10% of control): 4

C=CC(=O)NCCCN(C(=O)Nc1cccc(C(F)(F)F)c1)C1CCN(C(C)CCC)CC1 (stereo not shown)
IC50 (DCN1-like protein 1 PONY domain; binding, inhibitor, TR-FRET; 24 h, racemic mixture): 7.5 ± 1.89 µM

COc1c(O)c(C)cc2c1C(=O)c1c(O)cccc1C2=O
viability (HK-2 co-cultured with HepaRG; MTT; 266.67 µM, 24 h; reference: untreated control): 62.1 ± 13.9%

NC(=O)c1cccc2c1O/C(=C\c1ccc(C(=O)NC3CCNCC3)s1)C2=O
IC50 (PARP1; inhibitor): 0.26 µM

CCCC(C)N1CCC(N(Cc2ccccc2NC(=O)CC)C(=O)Nc2cccc(C(F)(F)F)c2)CC1 (stereo not shown)
IC50 (DCN1-like protein 1 PONY domain; inhibitor, TR-FRET; preincubation one hour): 1.34 ± 0.152 µM

COc1ccc2c(c1)CN(C(=O)CCN1CCC(Cc3ccccc3)CC1)CC[S@@+]2[O-]
IC50 (Potassium voltage-gated channel subfamily A member 5 (KCNA5, Homo sapiens, UniProt P22460); IKur current, inhibitor, whole-cell patch clamp; stable cell line): 3.7 µM

Cc1cccc(-c2nc(-c3ccc([N+](=O)[O-])cc3)[nH]c2-c2ccncc2)c1
IC50 (TGFBR1; binding, LanthaScreen kinase binding): 0.689 ± 0.142 µM

Clc1ccc(Nc2ccncc2)cc1Cl
IC50 (DNA repair nuclease/redox regulator APEX1 (APEX1, Homo sapiens, UniProt P27695); DNA glycosylase activity, inhibitor, fluorescent DNA cleavage): > 99 µM

Cc1nn(CC(F)(F)F)cc1Nc1ncc(C2CC2)c(NCCc2c[nH]cn2)n1
number of kinases inhibited (16-kinase panel; radiometric; 1 µM, ATP at Km; below 10% of control): 0

CN(Cc1cnc2nc(N)nc(N)c2n1)c1ccc(C(=O)N2CCCCC2)cc1
IC50 (TYMS; inhibitor): > 100 µM

CC[C@@H]1[C@H](F)C(=O)N[C@@H]1COc1nccc2cc(C(N)=O)c(OC)cc12
IC50 (Mitogen-activated protein kinase kinase kinase 2 (MAP3K2, Homo sapiens, UniProt Q9Y2U5); ATP probe binding, KiNativ profiling, item: Lys1 probe site; THP-1 cell lysate): > 5 µM

Nc1ncnc2c1ncn2[C@@H]1O[C@H](COP(=O)(O)OP(=O)(O)OP(=O)(O)O)[C@@H](O)[C@H]1O
IC50 (P2Y receptor, rat; radioligand binding): 0.038 µM

Cn1cc2c(C(=O)O)ccc(NS(=O)(=O)c3ccc(OCC4CCC4)c(Cl)c3)c2n1
IC50 (High affinity cAMP-specific and IBMX-insensitive 3',5'-cyclic phosphodiesterase 8B (PDE8B, Homo sapiens, UniProt O95263); antagonist; off-target panel): 180 µM

Cc1ccc(S(=O)(=O)Nc2ccc(F)cc2NS(=O)(=O)c2ccc(C)cc2)cc1
IC50 (Protein lin-28 homolog A): 15.5 µM

COc1ccnc(CNC(=O)c2cnn(Cc3ccc(Cn4ccccc4=O)cc3)c2)c1F
IC50 (Coagulation factor XI (F11, Homo sapiens, UniProt P03951)): > 40 µM

CN1CCN(c2ccc(Nc3ncc4cc(C#N)c(=O)n(C5CCCC5)c4n3)cc2)CC1
IC50 (Tyrosine-protein kinase JAK2 (JAK2, Homo sapiens, UniProt O60674, V617F)): 3.69 µM

Cc1ccc(C)n1-c1sccc1C(=O)O
IC50 (Protein lin-28 homolog A): 5.4 µM

NC(=O)c1cccc2c1O/C(=C\c1ccc(C(=O)NCCc3nc4ccccc4[nH]3)s1)C2=O
IC50 (PARP1; inhibitor): 0.057 µM

COC(=O)C1CCN(C(=O)c2ccc(SCc3cnc4nc(N)nc(N)c4n3)nc2)CC1
IC50 (TYMS; inhibitor): > 100 µM

CC(C)C[C@H](NC(=O)C[C@H](O)[C@H](CC(C)C)NC(=O)[C@H](Cc1c[nH]cn1)NC(=O)CNC(=O)[C@@H](NC(=O)[C@H](C)NC(=O)[C@H](Cc1c[nH]c2ccccc12)NC(=O)[C@H](CCC(N)=O)NC(=O)[C@@H](Cc1ccccc1)NC(=O)COCCOCCNC(=O)CCC(C(=O)O)N1CCN(CC(=O)O)CCN(CC(=O)O)CCN(CC(=O)O)CC1)C(C)C)C(N)=O (stereo partly shown) [lutetium-177 labelled]
tissue uptake (BALB/c nu/nu mice, female, lumbar lymph node metastases; intravenous, 50 pmol, 24 h): 5 ± 0.8 %ID/g

COc1cc2c(c(OC)c1OC)-c1c(cc(OC)c(OC)c1OC)C[C@H](C)[C@H](C)C2
IC50 (CYP3A, rat; poziotinib metabolism to M2, inhibitor; rat liver microsomes, 0.3 mg/mL; 30 min, with: poziotinib 5 µM): 12.7 µM

Cc1cccc(-c2nc(CN(C)C)[nH]c2-c2ccncc2)c1
IC50 (TGFBR1; binding, LanthaScreen kinase binding): 0.265 ± 0.0504 µM

O=C(O)c1cc(O)c2c(c1)C(=O)c1cccc(O)c1C2=O
viability (HK-2 co-cultured with HepaRG; MTT; 133.33 µM, 24 h; reference: untreated control): 65 ± 5.72%

For quick reference, copied from above:
Cc1nn(CC(F)(F)F)cc1Nc1ncc(C2CC2)c(NCCc2c[nH]cn2)n1
number of kinases inhibited (16-kinase panel; radiometric; 1 µM, ATP at Km; below 10% of control): 0
